Experimental data gathered from unrelated publications.
Lines come from different studies, so protocols differ.

SMILES	test	system	setting	measurement	result
CNC(=O)c1cc(Oc2ccc(NC(=O)Nc3cc(C(C)(C)C)nn3-c3ccc4ncccc4c3)c(F)c2)ccn1		patients	oral, dose not given, cycles 1 and 2, High AUC subgroup	patients with nervous system disorders	67%
O=C(NC[C@H]1CN(c2ccc(N3CCOCC3=O)cc2)C(=O)O1)c1ccc(Cl)s1	Phoenix NLME	atrial fibrillation patients, plasma	oral, dose not given	patients above AUC range	12%
FC(F)(F)c1ccc(CNc2ccc(Cc3c[nH]c4ncc(Cl)cc34)cn2)cn1	measured: gastroesophageal reflux disease	patients with TGCT	oral, 1000 mg/day, all grades	patients with treatment-related adverse event	10%
Cc1ccc(C(=O)N(CCCN)C(c2nc3snc(C)c3c(=O)n2Cc2ccccc2)C(C)C)cc1 (stereo not shown)		patients	intravenous, dose not given, all doses	patients with grade ≥3 mucosal inflammation	5%
C=CCN1CC(=O)N2[C@@H](Cc3ccc(O)cc3F)C(=O)N(Cc3cccc(N4CC(N5CCN(CC)CC5)C4)n3)C[C@@H]2N1C(=O)NCc1ccccc1		advanced solid tumour patients	80 mg twice daily, treatment-related, any grade	patients with ALT increased	0%
Cc1cc(NC2CCN(C(=O)OC3CCN(C(=O)/C=C/CN(C)C)C3)CC2)n2ncc(C(C)C)c2n1 (stereo not shown)	Phase I dose escalation CTCAE v4.0, measured: urinary tract infection	patients with advanced solid tumours	dose not given, TIW dosing grade 3 or higher	patients with adverse event	0%
Cc1cc(-c2nnc(N)nc2-c2ccc(F)cc2)cc(Cl)n1	measured: Hypothyroidism	IO-naive mCRPC patients, male	oral, dose not given, treatment-related, grade 2	patients with immune-mediated AE	0%
CCOc1c([C@H](C)n2nc(C)c3c(N)ncnc32)cc(Cl)c(F)c1[C@@H]1CNC(=O)C1	measured: QRS ≤100 ms	previously treated B-cell malignancy	oral, 30 mg once daily, baseline below thresholds	patients	100%
CC(C)C[C@H](NC(=O)[C@@H](Cc1c[nH]c2ccccc12)NC(=O)[C@H](Cc1ccc(O)cc1)NC(=O)[C@H](CO)NC(=O)[C@H](Cc1c[nH]c2ccccc12)NC(=O)[C@H](Cc1c[nH]cn1)NC(=O)[C@@H]1CCC(=O)N1)C(=O)N[C@@H](CCCNC(=N)N)C(=O)N1CCC[C@H]1C(=O)NCC(N)=O		Chinese CPP children, boys	intramuscular, 22.5 mg, 12 months, day 1, month 6	patients with TEAEs	100%
FC(F)(F)c1ccc(CNc2ccc(Cc3c[nH]c4ncc(Cl)cc34)cn2)cn1		patients with advanced solid tumours	oral, dose not given, all grades, related to treatment	patients with AST increase	35%
COCCOc1cnc2ccn([C@H](C)c3nnc4c(F)cc(-c5cnn(C)c5)cn34)c(=O)c2c1		cancer patients	oral, dose not given, increase from baseline >30 ms	patients with QTcF increase	35.1%
COc1ccc([C@@H](O)c2cc(-c3ncnc4cc(N5CCOCC5)ccc34)c(F)cc2Cl)nn1	measured: general and administration site disorders	locally advanced rectal cancer patients	250 mg, with: capecitabine plus radiotherapy	patients with TEAE	50%
O=C(Nc1nc2cccc(-c3ccc(CN4CCS(=O)(=O)CC4)cc3)n2n1)C1CC1	measured: bile reflux into stomach	rheumatoid arthritis patients	oral, 200 mg once daily, 4 weeks, any relatedness	patients with adverse event	0%
C[C@@H](Nc1cc(F)cc(F)c1)c1cc(C(=O)N(C)C)cc2c(=O)cc(N3CCOCC3)oc12	measured: Syncope	advanced solid tumour patients	oral, dose not given, dose finding	patients discontinuing for AE	0%
C=CC(=O)Nc1cc(Nc2nccc(-c3cn(C)c4ccccc34)n2)c(OC)cc1N(C)CCN(C)C	measured: treatment-related grade ≥3 Anemia	EGFR-mutant MET-altered NSCLC	oral	patients with adverse events	0%
CNC(=O)c1ccc(-c2cnc3ncc(Cc4ccc5ncccc5c4)n3n2)cc1F	measured: Vomiting	other cancer patients	oral, 600 mg twice daily, expansion cohort, grade 3-4	patients with adverse event	0%
NC(=O)N1c2ccccc2C=Cc2ccccc21		male patients	oral, dose not given, on-treatment adverse events	patients with Diarrhea	7%
C=CC[C@@H]1/C=C(\C)C[C@H](C)C[C@H](OC)[C@H]2O[C@@](O)(C(=O)C(=O)N3CCCC[C@H]3C(=O)O[C@H](/C(C)=C/[C@@H]3CC[C@@H](O)[C@H](OC)C3)[C@H](C)[C@@H](O)CC1=O)[C@H](C)C[C@@H]2OC		kidney transplant recipients, CYP3A5*3/*3 poor metabolizers, whole blood	oral, dose not given	patients with supratherapeutic C0	23%
COc1cc(Nc2ncc3c(n2)-c2ccc(Cl)cc2C(c2c(F)cccc2OC)=NC3)ccc1C(=O)O		cancer patients	oral, dose not given, all grades any attribution, with: pembrolizumab	patients with weight loss	25%

Some of these lines once more:
SMILES	test	system	setting	measurement	result
FC(F)(F)c1ccc(CNc2ccc(Cc3c[nH]c4ncc(Cl)cc34)cn2)cn1		patients with advanced solid tumours	oral, dose not given, all grades, related to treatment	patients with AST increase	35%
